{"data": "Assay results of several laboratories", "note": "Numbered parts are unrelated; each lists some results of a single study. pIC50: −log10 of the molar value.", "UniProt O15264, sequence (whole entry, looked up)": "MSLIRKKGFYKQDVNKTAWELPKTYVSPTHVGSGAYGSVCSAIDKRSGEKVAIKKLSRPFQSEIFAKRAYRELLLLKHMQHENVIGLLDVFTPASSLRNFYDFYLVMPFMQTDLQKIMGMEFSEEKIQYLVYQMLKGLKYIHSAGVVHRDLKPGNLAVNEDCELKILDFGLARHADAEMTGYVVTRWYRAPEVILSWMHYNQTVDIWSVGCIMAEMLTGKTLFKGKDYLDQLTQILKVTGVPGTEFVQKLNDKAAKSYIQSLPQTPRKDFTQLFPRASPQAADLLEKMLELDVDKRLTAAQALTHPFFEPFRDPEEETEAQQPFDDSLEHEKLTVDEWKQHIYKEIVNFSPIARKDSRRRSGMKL"}
{"data": "Block 1", "target": "RNA binding protein fox-1 homolog 2, RRM domain, GST-SBP tag (RBFOX2, Homo sapiens, UniProt O43251-10, residues 100-194)", "method": "RNA Bind-n-Seq", "form": "RNA", "sample": "in vitro", "tested at": "365 nM", "notes": "natural RNA segment, single round, ends assumed", "baseline": "no-protein control", "reading": "higher = stronger binding", "Target sequence (chain)": "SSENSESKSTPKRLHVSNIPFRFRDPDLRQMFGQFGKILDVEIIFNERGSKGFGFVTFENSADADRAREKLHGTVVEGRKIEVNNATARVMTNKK"}
{"Sequence": "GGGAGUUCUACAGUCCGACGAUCUACACCCCCCCCCACAAGAGGGGUGGAGUUUCUUCCCAACCCAAAUCUGGAGAGGUCAGAAUGGAACUACCUCAGUUGGCACAAACAGAUCAUGGCUCCUAUCAGUCUCAUGGAAUUCUCGGGUGCCAA", "RBNS enrichment (R)": 0.22}
{"Sequence": "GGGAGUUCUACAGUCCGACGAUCUUUAUUUUUCUACUUGGAACUGUACACAUUUGAAAAGUACCCAAAUAAACCAGAAGCUUUAUCGUUGCUGGGCCAGCCUUUGCCUUAGUGUGGAGGCUGGGGGCGGUGGGUGGAAUUCUCGGGUGCCAA", "RBNS enrichment (R)": 0.222}
{"Sequence": "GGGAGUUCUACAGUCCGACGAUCAUAUACUGAUCCUAAAACCAAGGGAAUUAACAUUCCUAAUCCUGCACUAUGAACAGAACCCUGCCCAUGAGAGGCACUUGUAGGUGAAACUCUCUUUUCUUGUUCUUUUUUGGAAUUCUCGGGUGCCAA", "RBNS enrichment (R)": 0.552}
{"Sequence": "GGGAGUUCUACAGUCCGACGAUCUAGCUUGUGUUAUCAAAUGUUCUAAUGCAUAUUUAUAAGAGAAAAAAGGUUUAAAGUAUUUAUUCCCAUAACCUCUGCUUAUGGACUCUUUAUUACCUCUGGCUCUCCCGUGGAAUUCUCGGGUGCCAA", "RBNS enrichment (R)": 0.428}
{"Sequence": "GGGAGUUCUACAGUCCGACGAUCUCAGACGCUGGCUUGAGAGGAGCCCCGCACCUUGGGCACCAGGGAGUGCCAUCCGCCUCCCAGUCCGGUGUCACUCACCCAACCUUGUACAUGACUAGCUCUCCCAGUGUUGGAAUUCUCGGGUGCCAA", "RBNS enrichment (R)": 0.572}
{"Sequence": "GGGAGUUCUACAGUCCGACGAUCAAAGAACUUAGUCAUCCCUUCCACCUCCUACUGUGAAGAACAGACCCUGGGUCCCACACUGAAAUCCCCUCUAGUCACCCAUUCCCACCCCCCAGGGAGCUGCCUCCCAGUGGAAUUCUCGGGUGCCAA", "RBNS enrichment (R)": 0.415}
{"Sequence": "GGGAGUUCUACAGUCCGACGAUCGAAUUUCCUGCCACUAACAUACACACAGUACCAGCCUUAAAACAAAAGACUAGGUACUGUAAGCAUACAUUUGUGCGAGCUGGCUUAGGGUUGGUUCCUCAUCCUCCACCUGGAAUUCUCGGGUGCCAA", "RBNS enrichment (R)": 0.298}
{"Sequence": "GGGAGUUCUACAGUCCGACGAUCCAGCCCCUGCACAAAGCCCUUCCAUGUCGCCUCUGCAUUCAGGAUCAAACCCCGACCACCUGCCCAACCUGCUCUCCUCUUGCCACUGCCUCUUCCUCCCUCAUUCCACCUGGAAUUCUCGGGUGCCAA", "RBNS enrichment (R)": 0.959}
{"data": "Block 2", "target": "RING finger protein unkempt homolog, zinc fingers 1-6, GST-SBP tag (UNK, Homo sapiens, UniProt Q9C0B0, residues 30-357)", "method": "RNA Bind-n-Seq", "form": "RNA", "sample": "in vitro", "tested at": "not given", "notes": "RNA with constant flanks, human and mouse sites, ends assumed", "baseline": "input RNA pool", "reading": "higher = stronger binding", "Target sequence (chain)": "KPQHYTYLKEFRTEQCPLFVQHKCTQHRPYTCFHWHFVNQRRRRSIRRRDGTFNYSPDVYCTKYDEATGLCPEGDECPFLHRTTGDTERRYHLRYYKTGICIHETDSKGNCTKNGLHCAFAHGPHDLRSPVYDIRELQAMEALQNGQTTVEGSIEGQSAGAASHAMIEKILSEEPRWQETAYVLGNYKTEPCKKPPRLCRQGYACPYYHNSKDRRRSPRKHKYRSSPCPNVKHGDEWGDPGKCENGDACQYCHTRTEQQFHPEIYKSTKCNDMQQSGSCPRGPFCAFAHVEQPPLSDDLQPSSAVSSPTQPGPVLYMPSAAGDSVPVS"}
{"Sequence": "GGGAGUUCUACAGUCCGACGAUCUUUGCCCGGCACACAGCGCUCAAGCCCCACGCAUGUCCGCGCUGCGGCAAGGGUUUCAAGCACAGCUUCAACCUAGCCAACCACCUGCGCUCGCACACCGGGGAGCGGCCCUACCGCUGCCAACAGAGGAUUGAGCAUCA", "bound/input enrichment [ratio]": 0.259}
{"Sequence": "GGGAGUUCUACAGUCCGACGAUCUCAACCUAUGCACAGUGAGCUGGUUAAGAAGAUCCUAGGCAACAAAGCUACCUUCAGCCCUAUAGUCACUUUGGAACCUAGAAGAAGAAAAUUCCACAAACCAAUUACCAUGACCAUUCCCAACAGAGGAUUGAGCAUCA", "bound/input enrichment [ratio]": 0.787}
{"Sequence": "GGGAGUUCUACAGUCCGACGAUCGCUCCUAUUAAUGAGGUGGCAAGAUUUAACCUGAUGCAGGUUGGCCGCCUUUUGCAGCAGCUAGCAAUGACUGGCACUGAAGAAGGAGAUCCCCGGACCAAAAAUAGCCUUGGAAAAUUUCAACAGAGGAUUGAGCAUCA", "bound/input enrichment [ratio]": 0.295}
{"Sequence": "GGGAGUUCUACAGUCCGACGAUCAACAUUACUGUGCUAAGGAGCCAGUGUGAUGCUGCUUCCCAGACGGUUACUGGUCAUCAUUUAGAAACCCAUGAUUUAAAGAUUCUCAUUAGCUCUGGACAGCAGAAGUCAUUGGCUAAACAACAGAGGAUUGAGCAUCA", "bound/input enrichment [ratio]": 0.141}
{"Sequence": "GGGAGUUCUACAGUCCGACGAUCGCUUAUAAAGCUGCUAGUGAUAUUGCAAUGACAGAACUUCCACCAACGCAUCCUAUUCGCUUAGGUCUUGCUCUCAAUUUUUCCGUAUUCUACUACGAAAUUCUUAAUUCCCCUGACCGUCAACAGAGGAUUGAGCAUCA", "bound/input enrichment [ratio]": 0.246}
{"Sequence": "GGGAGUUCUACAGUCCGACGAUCACGCUGCCCUCGGACAAGCUGAGCAAGAUUCAGACCCUCAAACUGGCGGCCAGGUACAUCGACUUCCUGUACCAGGUCCUGCAGAGCGACGAGCUGGACUCCAAGAUGGCAAGCUGCAGCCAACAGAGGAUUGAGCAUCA", "bound/input enrichment [ratio]": 0.184}
{"Sequence": "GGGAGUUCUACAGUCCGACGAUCCACGCGUCCAUCCAGAUGAACGUGGCCGAGGUUGAUAGGACCACAGGCCGGUUUAAUGGCCAGUUUAAAACCUAUGGCAUCUGCGGGGCCAUUCGCAGGAUGGGCGAGUCAGAUGAUUCUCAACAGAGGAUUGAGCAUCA", "bound/input enrichment [ratio]": 0.0477}
{"Sequence": "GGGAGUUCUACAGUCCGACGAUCAUGUAGUGUGUGCACUUGUGCAGAAUGAGAAGCUUCCCAUGAACAUUUGAACUGAGACGGGGCAGAGGACAGAUCCCUCCCUGUGAAAGAAUUGUCAGUAAGUGAAGUGCUUUCAUCCCACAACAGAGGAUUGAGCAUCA", "bound/input enrichment [ratio]": 0.112}
{"data": "Further values, each from its own experiment"}
{"Structure (SMILES)": "COc1cc(C(=O)N2CCC(N3CCN(C)CC3)CC2)ccc1Nc1ncc2c(n1)N(C)c1ccccc1C(=O)N2C", "target": "EGFR (mouse)", "test": "probe labelling, KiNativ, refers to: IPVAIkELR peptide, LYS1 site", "system": "brain tissue lysate (mouse)", "conditions": "0.1 µM, together with: ATP acyl-phosphate probe", "quantity": "inhibition", "result": "-3.9%"}
{"Structure (SMILES)": "Cc1nc(-c2ccccc2)c(-c2ccncc2)o1", "target": "Mitogen-activated protein kinase 13 (MAPK13, Homo sapiens, UniProt O15264)", "test": "enzyme activity, inhibitor, radiometric", "quantity": "pIC50", "result": "< 4.52"}
{"note": "For quick reference, copied from above (block 1):"}
{"Sequence": "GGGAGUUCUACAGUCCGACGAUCUAGCUUGUGUUAUCAAAUGUUCUAAUGCAUAUUUAUAAGAGAAAAAAGGUUUAAAGUAUUUAUUCCCAUAACCUCUGCUUAUGGACUCUUUAUUACCUCUGGCUCUCCCGUGGAAUUCUCGGGUGCCAA", "RBNS enrichment (R)": 0.428}
